Measured values gathered from unrelated publications.
± marks the error that the study gave.
AMY2: Pancreatic alpha-amylase (AMY2, Sus scrofa, UniProt P00690)
HTR1B: 5-hydroxytryptamine receptor 1B (HTR1B, Homo sapiens, UniProt P28222)
SIRT3: NAD-dependent protein deacetylase sirtuin-3, mitochondrial (SIRT3, Homo sapiens, UniProt Q9NTG7)

| Compound | tested on | assay | test system | conditions | scale | measurement | result |
| --- | --- | --- | --- | --- | --- | --- | --- |
| O=C1c2sc(-c3ccc(N4CCC(CO)CC4)nc3F)nc2CCN1c1cccnc1 | PCP site | radioligand binding | – | 1 µM, with: antagonist radioligand | – | inhibition | 19% |
| O=C1CC(c2ccccc2)Oc2c(Br)c(O)c(Br)c(O)c21 (stereo not drawn) | AMY2 | enzyme activity, inhibitor | – | 50 µM, 30 min | – | inhibition | 50.4% |
| C[C@@H](O)[C@H](NC(=O)c1ccc(OCc2ccccc2)cc1)C(=O)N[C@@H](CCc1ccccc1)C(=O)NCc1ccccc1Cl | chymotrypsin | enzyme activity, inhibitor | – | 100 µM | – | inhibition | 9% |
| CCOC(=O)C12CC1C(n1cnc3c(NC)nc(C#Cc4ccc(Br)s4)nc31)C(O)C2O (stereo not drawn) | SLC6A3 (Homo sapiens, UniProt Q01959) | ligand displacement, radioligand | – | 10 µM | – | inhibition | -480% |
| CN(Cc1ccc(/C=C/C(=O)NO)cc1)CC12CC3CC(CC(C3)C1)C2 | human NK1 receptor | agonist radioligand binding | – | 0.05 µM | – | inhibition | -10% |
| O=C(Nc1ccc(C(F)F)cc1)[C@H](CC1CCCCC1)Nc1nn2c(=O)ccnc2s1 | Dual specificity protein phosphatase 13B (DUSP13B, Homo sapiens, UniProt Q9UII6) | enzyme activity, inhibitor | – | 10 µM | – | inhibition | -3% |
| C[Si]1(C[C@H](CN)CC(=O)O)CCCC1 | AMPA receptor, rat | binding, radioligand binding | – | 70 µM, with: [3H]AMPA | – | inhibition | -2% |
| COc1c(Br)c(O)c2c(c1Br)OC(c1ccccc1)CC2=O (stereo not drawn) | AMY2 | enzyme activity, inhibitor | – | 50 µM, 30 min | – | inhibition | 17.6% |
| O=C(NC1CCC1)[C@H](Cc1c[nH]c2ccccc12)NC(=O)[C@H](CCCCNC(=S)Nc1ccc(F)c(O)c1F)NS(=O)(=O)c1cccc(F)c1 | SIRT1 (Homo sapiens, UniProt Q96EB6) | enzyme activity, inhibitor | – | 30 µM | – | inhibition | 78% |
| C=CC(=O)Nc1cccc(-c2cnc3[nH]cc(C(=O)NC(C)(C)C)c3n2)c1 | NDRG1 | kinase activity | – | 0.1 µM | – | inhibition | 4% |
| CC1Cc2ccccc2N1C(=O)CN1CCN(c2ccccc2)CC1 (stereo not drawn) | HTR1B | radioligand binding | – | concentration not given, with: [3H]5-CT | – | inhibition | -2.1% |
| CC(=O)N[C@H](C(=O)N[C@@H](CO)C(=O)N[C@@H](Cc1ccccc1)C(=O)N[C@H]1CCCCNC(=N)NCCCC[C@@H](C(=O)N2CCC[C@H]2C(N)=O)NC(=O)[C@H](CC(C)C)NC(=O)[C@H](CC(C)C)NC(=O)[C@H](C)NC(=O)[C@H](Cc2c[nH]c3ccccc23)NC(=O)[C@H](Cc2ccc(O)cc2)NC(=O)[C@H](CCC(=O)O)NC1=O)[C@@H](C)O | Protein Mdm4 (MDM4, Homo sapiens, UniProt O15151) | protein-protein interaction, inhibitor, TR-FRET | – | 0.1 µM | – | inhibition | 64% |
| C[Si](C)(C)C[C@@H](CN)CC(=O)O | kainate receptor, rat | binding, radioligand binding | – | 75 µM, with: [3H]kainic acid | – | inhibition | 2% |
| Cc1ccc(N(O)/N=N/c2ccc(S(=O)(=O)Nc3nccs3)cc2)cc1 | AMY2 | enzyme activity, inhibitor | – | 180 µg/mL | – | inhibition | 26.3% |
| CC(=O)[C@]12NC(C)(C)C[C@@]1(C)C(=O)C1=C2c2c(c3c4n2C(C)(C)CC2=C4[C@@]4(CC(C)(C)N[C@@](C)(C4)C2=O)CC3(C)C)C(=O)C(C)(C)N1 (racemic) | KCNQ3 (Homo sapiens, UniProt O43525) | ion current, inhibitor, patch clamp | HEK-293T | 40 µM | – | inhibition | 1% |
| COC1CN([C@H]2CC[C@H]([C@@]3(C)Oc4c(Cl)cc(C(=O)NCc5c(SC)cc(C)[nH]c5=O)c(C)c4O3)CC2)C1 | – | RNA-seq, item: ERRFI1 mouse homolog | mouse, HT-1376 xenograft, whole blood | dose not given | reference: vehicle | log2 fold change | 0.171 |
| Cc1ccc(CNC(=O)[C@H](CCc2ccccc2)NC(=O)[C@H](CCc2ccccc2)NC(=O)Cc2cccc(Oc3ccccc3)c2)cc1 | trypsin | enzyme activity, inhibitor | – | 100 µM | – | inhibition | 0% |
| O=C1c2sc(-c3ccc(N4CCC(F)C4)nc3F)nc2CCN1c1cccnc1 (stereo not drawn) | AVPR2 (Homo sapiens, UniProt P30518) | ligand displacement, radioligand | – | 1 µM | – | inhibition | -6% |
| Cc1ccc(CNC(=O)[C@H](CCc2ccccc2)NC(=O)[C@H](CC(=O)NCC(C)(C)C)NC(=O)CCc2cccc(F)c2)cc1 | chymotrypsin | enzyme activity, inhibitor | – | 100 µM | – | inhibition | 2% |
| O=C(CN1CCO[C@@H](COc2cccc(Cl)c2)C1)N1CCc2ccccc21 | HTR1E (Homo sapiens, UniProt P28566) | radioligand binding | – | concentration not given, with: [3H]5-HT | – | inhibition | 4.5% |

| Compound | tested on | assay | test system | conditions | scale | measurement | result |
| --- | --- | --- | --- | --- | --- | --- | --- |
| CNC(=O)C[C@H](Cc1ccc(C#N)cc1)NC(=O)c1cc(-c2ccc(CN[C@H](C)c3ccc(C)cc3)o2)ccc1Cl | PTGER3 (Homo sapiens, UniProt P43115) | agonist response, antagonist | – | 10 µM | reference: agonist control | inhibition | 0% |
| COc1cc(OC)c(F)c(/C=C/c2cnc3ccn(S(=O)(=O)c4cn(CCF)cn4)c3n2)c1F | FLT1 (Homo sapiens, UniProt P17948) | – | – | 100 nM | – | inhibition | 0% |
| CCCCCCCCCCCCNC(=S)NCCCC[C@H](NC(=O)OCc1ccccc1)C(=O)N[C@@H](CC(C)C)C(=O)N[C@@H](CCCNC(=N)N)C(N)=O | SIRT3 | enzyme activity, inhibitor | – | 10 µM | – | inhibition | 63% |
| Cc1ccc(-c2nn(-c3ccc(S(C)(=O)=O)cc3)cc2/C=N/N=C2/NC(=O)CS2)cc1 | EGFR (Homo sapiens, UniProt P00533) | kinase activity, inhibitor | – | 1 µM | – | inhibition | 70.5% |
| S=C(NCC1(N2CCCCC2)CCCCC1)NC1CC2CCC1C2 (stereo not drawn) | CXCR4 (Homo sapiens, UniProt P61073) | arrestin recruitment, DiscoverX arrestin | – | 30 µM | – | inhibition | 74% |
| CSCC[C@H](NC(=O)[C@H](C)NC(=O)[C@H](Cc1c[nH]c2ccccc12)NC(=O)[C@H](Cc1ccccc1)NC(=O)[C@H](CCC(=O)O)NC(C)=O)C(=O)N[C@@H](CC(C)C)C(=O)N[C@@H](Cc1ccc(O)cc1)C(N)=O | Programmed cell death 1 ligand 1, with PD-1 (CD274, Homo sapiens, UniProt Q9NZQ7) | PD-1/PD-L1 binding, ELISA | – | 10 µM | – | inhibition | 50.7 ± 5.5% |
| Cc1ccc(CNC(=O)[C@H](CCc2ccccc2)NC(=O)[C@H](CC(=O)NCC(C)(C)C)NC(=O)c2ccc(OCc3ccccc3)cc2)cc1 | Prothrombin (F2, Homo sapiens, UniProt P00734) | enzyme activity, inhibitor | – | 100 µM | – | inhibition | 13% |
| CN(C)C/C=C/C(=O)Nc1ccc2nc(NCCCCCN(C)C)nc(NCCCCCCN(C)C)c2c1 | EHMT2 (Homo sapiens, UniProt Q96KQ7) | enzyme activity, inhibitor, radiometric | – | 50 µM | – | inhibition | 88% |
| CC(C)NC(=O)[C@H](CCc1ccccc1)NC(=O)[C@H](CC(=O)NCC(C)(C)C)NC(=O)CCc1ccccc1 | trypsin | enzyme activity, inhibitor | – | 100 µM | – | inhibition | -4% |
| CN(C)CCCCCCNc1nc(NCCCCCN(C)C)nc2ccc(NC(=O)CCl)cc12 | Histone-lysine N-methyltransferase SETDB1, triple Tudor domain (SETDB1, Homo sapiens, UniProt Q15047) | – | – | 33.33 µM | – | inhibition | 104% |
| COc1ccc(C(=O)Nc2c(-c3cccs3)nc3ccccn23)cc1 | HTR1B | ligand displacement, radioligand | – | 10 µM | – | inhibition | < 50% |
| Cc1ccc(CN(C)C(=O)C(CCc2ccccc2)NC(=O)C(NC(=O)c2ccc(OCc3ccccc3)cc2)C(C)O)cc1 (stereo not drawn) | chymotrypsin | enzyme activity, inhibitor | – | 100 µM | – | inhibition | 3% |
| C=C(NC(=O)[C@H](CCCCNC(=S)NCCCCCCCCCCCC)NC(=O)OCc1ccccc1)C(=O)N[C@@H](CCCNC(=N)N)C(N)=O | SIRT3 | enzyme activity, inhibitor | – | 1 µM | – | inhibition | 56% |
| O=C(Nc1ccccc1)Nc1ccc(C(F)(F)F)cc1 | SRPK3 (Homo sapiens, UniProt Q9UPE1) | binding, KINOMEscan competitive binding | – | concentration not given | – | inhibition | 61% |
| C/C=C/C(=O)Nc1ccc2nc(NCCCCCN(C)C)nc(NCCCCCCN(C)C)c2c1 | KMT5B (Homo sapiens, UniProt Q4FZB7) | enzyme activity, inhibitor, radiometric | – | 10 µM | – | inhibition | 28% |
| Cc1ncsc1-c1ccc(C(C)NC(=O)C2CC(O)CN2C(=O)C(NC(=O)CCCCCCCCCCN2CCCC(Nc3ncc(Cl)c(Nc4ccccc4S(=O)(=O)C(C)C)n3)C2)C(C)(C)C)cc1 (stereo not drawn) | 22Rv1 | RNA-seq, item: TRAF3IP3 mRNA | – | concentration not given | reference: DMSO | log2 fold change | -2.28 |
| CC(C)Cn1c(SCC(=O)N2CCc3ccccc3C2)nc2cc(Cl)ccc2c1=O | HTR1B | ligand displacement, radioligand | – | 10 µM | – | inhibition | 18% |
| CCCCCCCCCCCCNC(=S)NCCCC[C@H](NC(=O)OCc1ccccc1)C(=O)N[C@@H](CCCNC(=N)N)C(=O)N[C@@H](CCCNC(=N)N)C(N)=O | SIRT3 | enzyme activity, inhibitor | – | 1 µM | – | inhibition | 48% |
| C=CC(=O)Nc1cccc(Cn2ncc3cnc(Nc4cnn(CCOC)c4)nc32)c1 | EPHA3 human | binding, KINOMEscan | – | 100 nM | lower = stronger binding | percent of control | 80% |

For quick reference, copied from above:
| Compound | tested on | assay | test system | conditions | scale | measurement | result |
| --- | --- | --- | --- | --- | --- | --- | --- |
| Cc1ccc(CNC(=O)[C@H](CCc2ccccc2)NC(=O)[C@H](CC(=O)NCC(C)(C)C)NC(=O)c2ccc(OCc3ccccc3)cc2)cc1 | Prothrombin (F2, Homo sapiens, UniProt P00734) | enzyme activity, inhibitor | – | 100 µM | – | inhibition | 13% |
| O=C1CC(c2ccccc2)Oc2c(Br)c(O)c(Br)c(O)c21 (stereo not drawn) | AMY2 | enzyme activity, inhibitor | – | 50 µM, 30 min | – | inhibition | 50.4% |
| CC(=O)N[C@H](C(=O)N[C@@H](CO)C(=O)N[C@@H](Cc1ccccc1)C(=O)N[C@H]1CCCCNC(=N)NCCCC[C@@H](C(=O)N2CCC[C@H]2C(N)=O)NC(=O)[C@H](CC(C)C)NC(=O)[C@H](CC(C)C)NC(=O)[C@H](C)NC(=O)[C@H](Cc2c[nH]c3ccccc23)NC(=O)[C@H](Cc2ccc(O)cc2)NC(=O)[C@H](CCC(=O)O)NC1=O)[C@@H](C)O | Protein Mdm4 (MDM4, Homo sapiens, UniProt O15151) | protein-protein interaction, inhibitor, TR-FRET | – | 0.1 µM | – | inhibition | 64% |
| O=C1c2sc(-c3ccc(N4CCC(CO)CC4)nc3F)nc2CCN1c1cccnc1 | PCP site | radioligand binding | – | 1 µM, with: antagonist radioligand | – | inhibition | 19% |
| Cc1ccc(N(O)/N=N/c2ccc(S(=O)(=O)Nc3nccs3)cc2)cc1 | AMY2 | enzyme activity, inhibitor | – | 180 µg/mL | – | inhibition | 26.3% |
